{"data": "Published values pooled from the literature", "note": "Protocols differ between the studies behind these lines. ± marks the error that the study gave."}
{"Substance": "semaglutide", "test": "measured: outcome unknown", "test system": "human, safety analysis set", "conditions": "concentration not given, 32 weeks, run-in", "quantity": "participants with adverse events", "value": "0%"}
{"Substance": "deucravacitinib", "test system": "human volunteers", "conditions": "dose not given, single ascending dose", "quantity": "subjects with headache", "value": "16.7%"}
{"Substance": "maraviroc", "test system": "black CYP3A5 intermediate metabolizers, plasma", "conditions": "300 mg twice daily", "quantity": "Tmax", "value": "2 h"}
{"Substance": "chicoric acid", "tested on": "IPEC-J2 monolayer", "conditions": "500 µM, monolayer cultured 14 d", "quantity": "Papp apical to basolateral", "value": "0.383 ± 0.038 ×10⁻⁶ cm/s"}
{"note": "Excerpt of the above:"}
{"Substance": "deucravacitinib", "test system": "human volunteers", "conditions": "dose not given, single ascending dose", "quantity": "subjects with headache", "value": "16.7%"}
